# Measured values collected from several papers.
# Protocols differ between the studies behind these lines. Numbers after ± are the reported error.
# CA2: Carbonic anhydrase 2 (CA2, Homo sapiens, UniProt P00918)
# CA2 A65S/F130A/I91T/L203N/N67K/V134S: Carbonic anhydrase 2 (CA2, Homo sapiens, UniProt P00918, A65S/F130A/I91T/L203N/N67K/V134S)
Compound,target,test,setting,quantity,value
C[C@@H]1O[C@H](NC(=O)c2ccc(S(N)(=O)=O)cc2)[C@H](O)[C@H](O)[C@H]1O,CA2,"enzyme activity, inhibitor, absorbance",,IC50,0.07 µM
COc1cccc(/C(C)=N/NC(=O)CSc2nc3ccccc3c(=O)n2CCc2ccc(S(N)(=O)=O)cc2)c1,CA2,"enzyme activity, inhibitor, stopped-flow",,Ki,0.0558 µM
NS(=O)(=O)c1ccc(NC(=O)NN[C@@H]2OC[C@H](O)[C@H](O)[C@H]2O)cc1,CA2,"enzyme activity, inhibitor",,IC50,0.045 µM
Cc1ccc(S(=O)(=O)NC(C)c2ccccc2)cc1 (centres unmarked),CA2,"enzyme activity, inhibitor",,IC50,1.29 µM
NS(=O)(=O)c1ccc(N2N=C(c3ccccc3O)CC2c2ccc(Br)cc2)cc1 (centres unmarked),CA2,"enzyme activity, inhibitor, absorbance",,IC50,1.8 µM
COc1cc(-c2ccnc3nc(Nc4ccc(S(N)(=O)=O)cc4)nn23)cc(OC)c1OC,CA2,"enzyme activity, inhibitor, stopped-flow",,Ki,0.17 µM
NS(=O)(=O)c1c(F)c(F)c([S+]([O-])CCO)c(F)c1NC1CCCCCCC1 (centres unmarked),CA2 A65S/F130A/I91T/L203N/N67K/V134S,,pH 7,Kd,2 µM
COc1ccccc1/C=N/NC(=O)CSc1nc2ccccc2c(=O)n1CCc1ccc(S(N)(=O)=O)cc1,CA2,"enzyme activity, inhibitor, stopped-flow",,Ki,0.185 µM
NS(=O)(=O)c1ccc(N/N=C2\C(=O)N(CC(=O)Nc3ccccc3Cl)c3ccccc32)cc1,CA2,,,Ki,0.804 µM
COC(=O)CCCNC(=O)c1cc(S(N)(=O)=O)c(Cl)cc1NC1CCCCC1,CA2 A65S/F130A/I91T/L203N/N67K/V134S,,pH 7,Kd,0.017 µM
CC(=O)Nc1ccc(S(N)(=O)=O)cc1,CA2,"enzyme activity, inhibitor",,Ki,0.0677 µM
NS(=O)(=O)c1c(F)c(F)c(S(=O)(=O)CCO)c(NC2CCCCCCCCCCC2)c1F,CA2 A65S/F130A/I91T/L203N/N67K/V134S,,pH 7,Kd,0.00125 µM
CC(=O)Nc1ccc(S(=O)(=O)N2CCN(C(=O)c3cc4ccccc4oc3=O)CC2)cc1,CA2,,,Ki,> 100 µM
CC(C)c1ccc2c(c1)CC[C@H]1[C@](C)(C(=O)O)CCC[C@]21C,CA2,"CO2 hydration activity, inhibitor, stopped-flow","pH 7.4, 25 °C",IC50,0.52 ± 0.04 µM
Cc1cc(C)cc(C(=O)Nc2cccc(S(N)(=O)=O)c2)c1,CA2,"enzyme activity, inhibitor, absorbance",,IC50,0.93 µM
NS(=O)(=O)c1c(F)c(F)c(NCCc2ccc(O)cc2)c(F)c1NC1CCCCCCC1,CA2 A65S/F130A/I91T/L203N/N67K/V134S,,,Kd,12.5 µM
COc1coc(C)cc1=S,CA2,"esterase activity, inhibitor","10 min preincubation, pH 8.0, with: p-nitrophenyl acetate",Ki,6900 ± 1000 µM
NS(=O)(=O)c1c(F)c(F)c(S(=O)(=O)CCc2ccccc2)c(NC2CCCCCCCCCCC2)c1F,CA2 A65S/F130A/I91T/L203N/N67K/V134S,,pH 7,Kd,0.025 µM
C#CCCC1(CCOC(=O)NCCc2ccc(S(N)(=O)=O)cc2)N=N1,CA2,"enzyme activity, inhibitor, absorbance",,IC50,2.35 µM
Cc1cc(S(N)(=O)=O)c(Cl)cc1NC1CCCCC1,CA2 A65S/F130A/I91T/L203N/N67K/V134S,,pH 7,Kd,2 µM
NS(=O)(=O)c1ccc(NC(=O)NN[C@@H]2O[C@H](CO)[C@H](O)[C@H](O)[C@H]2O)cc1,CA2,"enzyme activity, inhibitor",,IC50,0.019 µM
NS(=O)(=O)c1c(F)c(F)c(SCCc2ccc(C(=O)O)cc2)c(F)c1F,CA2 A65S/F130A/I91T/L203N/N67K/V134S,,pH 7,Kd,0.175 µM
COc1ccc(/C(C)=N/NC(=O)CSc2nc3ccccc3c(=O)n2CCc2ccc(S(N)(=O)=O)cc2)cc1,CA2,"enzyme activity, inhibitor, stopped-flow",,Ki,0.126 µM

# For quick reference, copied from above:
Compound,target,test,setting,quantity,value
COc1cc(-c2ccnc3nc(Nc4ccc(S(N)(=O)=O)cc4)nn23)cc(OC)c1OC,CA2,"enzyme activity, inhibitor, stopped-flow",,Ki,0.17 µM
NS(=O)(=O)c1c(F)c(F)c([S+]([O-])CCO)c(F)c1NC1CCCCCCC1 (centres unmarked),CA2 A65S/F130A/I91T/L203N/N67K/V134S,,pH 7,Kd,2 µM
COc1ccccc1/C=N/NC(=O)CSc1nc2ccccc2c(=O)n1CCc1ccc(S(N)(=O)=O)cc1,CA2,"enzyme activity, inhibitor, stopped-flow",,Ki,0.185 µM
